# Experimental data of several laboratories.
# Numbered parts are unrelated; each lists some results of a single study. Values joined by “and” are separate records of one study, mostly repeats; a detail may differ.

# Block 1 — cell line: mouse MPNST tumor cells; technique: high-content immunofluorescence imaging; item: nuclear SOX9; tested at: 10 µM; time: 12 h; notes: mean of 2 replicates; reference: DMSO control; direction: higher = more nuclear SOX9
Compound,nuclear SOX9 intensity
c1ccc(C(NCc2cccnc2)(c2ccccc2)c2ccccc2)cc1,106 % of DMSO
O=P(O)(O)C(O)(Cc1cccnc1)P(=O)(O)O,94.3 % of DMSO
C[C@]12CC[C@H]3C(=CCc4cc(O)ccc43)[C@@H]1CCC2=O,107 % of DMSO
Clc1ccc(CSC(Cn2ccnc2)c2ccc(Cl)cc2Cl)cc1 (centres unmarked),116 % of DMSO
CN(C)c1nc(N(C)C)nc(N(C)C)n1,103 % of DMSO and 97.8 % of DMSO
CCN(CC)c1ccc(C=NNC(=O)c2ccc(O)cc2)cc1,131 % of DMSO

# Block 2 — technique: CellTiter-Glo; tested at: 1 µM; reference: DMSO
# Cell line: normal-adjacent epithelium patient-derived organoids sample H
SMILES,viability
O=C(Nc1cccnn1)N1CC(CC=Cc2cncc(Oc3ccc(C(F)(F)F)cn3)n2)C1,110% and 96.2%
Cc1cc2c(-c3ccco3)cnc(N[C@H]3CCN(C)C[C@@H]3C(=O)NC3CCCCC3)c2[nH]c1=O,125%
Cc1ncc(-c2cc(Cl)ccc2F)cc1-n1c(=O)n(CC(N)=O)c2ccccc21,104% and 99.8%
CCC(=NO)C(C)=Cc1ccc(F)c(C)c1,113% and 106%
CN(C)C(=O)Cn1cc(-c2ccc(-c3nnc4ccccn34)cc2)cn1,96.8% and 138%
COc1cccc(NC(=O)c2nc3scc(CN(C)Cc4ccccc4)c3c(=O)[nH]2)c1,135% and 95.7%

# Block 3 — host: mouse; medium: microsomes or S9; tested at: 2 µM; time: 0.5 h
Compound,remaining compound [%]
CCN1CCCCC1CNc1nccc(-c2ccc(C)nc2C)n1 (centres unmarked),20.4
c1ccc(Cn2ncc3/c(=N/c4cccc5ccccc45)nc[nH]c32)cc1,22.2
Cc1csc(C2=C(O)CN(CCC(c3ccccc3)c3ccccc3)C2=N)n1,0.349
Cc1cc(C)c(CNC(C)CCC(C)C)c(C)c1CO (centres unmarked),2.26
Cc1nn(CC(=O)N2c3c(c(C)nn3C)N(C(=O)OC(C)(C)C)CC2C)c(C)c1Cl (centres unmarked),3.35
CCOC(=O)C(CC)c1cc(C#N)c(C#N)cc1O (centres unmarked),21.3
c1ccc2c(c1)Cc1cc(-n3nnc4ccccc43)ccc1-2,3.72
CCOC(=O)CCS(=O)(=O)c1n[nH]c(NC(C)=O)n1,50.7
Cc1cc(Cl)cc(C(=O)c2c(C(C)C)c(=O)[nH]c(=O)n2Cc2cc(N)nc(Cl)c2)c1,19.7
CC(C)c1noc(CCCn2ccc(-c3ccc(C#N)cc3)n2)n1,0.521
COC(=O)CCC(=O)Nc1sc(C)c(C)c1C(N)=O,55.5
Oc1cc2c(cc1C(c1ccc(Br)cc1)N1CCOCC1)OCO2 (centres unmarked),> 99.9

# Block 4 — cell line: A-375; tested at: 100 µM; time: 18 h
Compound,viability
CS(=O)(=O)OCCCCOS(C)(=O)=O,97.7%
CC1(C)O[C@@H]2C[C@H]3[C@@H]4CCC5=CC(=O)CC[C@]5(C)[C@@]4(F)[C@@H](O)C[C@]3(C)[C@]2(C(=O)CCl)O1,85.2%
O=C(O)c1cc(=O)c2ccccc2o1,93.6%
CN1CCCCC1CCN1c2ccccc2Sc2ccc([S+](C)[O-])cc21 (centres unmarked),14.8%
O=c1c(-c2ccc(O[C@@H]3O[C@H](CO)[C@@H](O)[C@H](O)[C@H]3O)cc2)coc2cc(O)cc(O)c12,99.4%
COc1cc(C[C@H]2C(=O)OC[C@@H]2Cc2ccc(OC)c(OC)c2)ccc1O,104%
Cn1c(=O)cc(N2CCC[C@@H](N)C2)n(Cc2cc(F)ccc2C#N)c1=O,84.9% and 84.8%
O=C(Nc1ccc(Cl)cc1)c1cc(Br)ccc1O,26.4%
OC[C@@H](O)[C@H](O)[C@@H](O)CO,96.5%
COc1cc2ccc(=O)oc2cc1O,105%
CC(C)(CO)[C@@H](O)C(=O)NCCCO,96.7%

# Some of these lines once more (block 4):
Compound,viability
O=C(Nc1ccc(Cl)cc1)c1cc(Br)ccc1O,26.4%
CN1CCCCC1CCN1c2ccccc2Sc2ccc([S+](C)[O-])cc21 (centres unmarked),14.8%
Cn1c(=O)cc(N2CCC[C@@H](N)C2)n(Cc2cc(F)ccc2C#N)c1=O,84.9% and 84.8%
CS(=O)(=O)OCCCCOS(C)(=O)=O,97.7%
COc1cc2ccc(=O)oc2cc1O,105%
